Assay results of several laboratories.
Each numbered part is a random draw from the data of one study; scales do not carry over between parts. “And” joins repeats or separate records; there may be more than shown.
Sequence of UniProt P06493 (whole entry, looked up): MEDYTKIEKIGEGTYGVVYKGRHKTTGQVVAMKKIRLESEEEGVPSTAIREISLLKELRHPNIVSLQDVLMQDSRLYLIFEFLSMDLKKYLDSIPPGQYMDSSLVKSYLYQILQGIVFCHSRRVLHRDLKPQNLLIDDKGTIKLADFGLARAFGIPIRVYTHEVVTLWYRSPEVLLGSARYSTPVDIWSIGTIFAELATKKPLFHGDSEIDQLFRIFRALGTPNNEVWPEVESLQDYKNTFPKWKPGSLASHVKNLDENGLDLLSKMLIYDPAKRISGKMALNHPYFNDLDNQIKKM
Sequence of UniProt P17948 (whole entry, looked up): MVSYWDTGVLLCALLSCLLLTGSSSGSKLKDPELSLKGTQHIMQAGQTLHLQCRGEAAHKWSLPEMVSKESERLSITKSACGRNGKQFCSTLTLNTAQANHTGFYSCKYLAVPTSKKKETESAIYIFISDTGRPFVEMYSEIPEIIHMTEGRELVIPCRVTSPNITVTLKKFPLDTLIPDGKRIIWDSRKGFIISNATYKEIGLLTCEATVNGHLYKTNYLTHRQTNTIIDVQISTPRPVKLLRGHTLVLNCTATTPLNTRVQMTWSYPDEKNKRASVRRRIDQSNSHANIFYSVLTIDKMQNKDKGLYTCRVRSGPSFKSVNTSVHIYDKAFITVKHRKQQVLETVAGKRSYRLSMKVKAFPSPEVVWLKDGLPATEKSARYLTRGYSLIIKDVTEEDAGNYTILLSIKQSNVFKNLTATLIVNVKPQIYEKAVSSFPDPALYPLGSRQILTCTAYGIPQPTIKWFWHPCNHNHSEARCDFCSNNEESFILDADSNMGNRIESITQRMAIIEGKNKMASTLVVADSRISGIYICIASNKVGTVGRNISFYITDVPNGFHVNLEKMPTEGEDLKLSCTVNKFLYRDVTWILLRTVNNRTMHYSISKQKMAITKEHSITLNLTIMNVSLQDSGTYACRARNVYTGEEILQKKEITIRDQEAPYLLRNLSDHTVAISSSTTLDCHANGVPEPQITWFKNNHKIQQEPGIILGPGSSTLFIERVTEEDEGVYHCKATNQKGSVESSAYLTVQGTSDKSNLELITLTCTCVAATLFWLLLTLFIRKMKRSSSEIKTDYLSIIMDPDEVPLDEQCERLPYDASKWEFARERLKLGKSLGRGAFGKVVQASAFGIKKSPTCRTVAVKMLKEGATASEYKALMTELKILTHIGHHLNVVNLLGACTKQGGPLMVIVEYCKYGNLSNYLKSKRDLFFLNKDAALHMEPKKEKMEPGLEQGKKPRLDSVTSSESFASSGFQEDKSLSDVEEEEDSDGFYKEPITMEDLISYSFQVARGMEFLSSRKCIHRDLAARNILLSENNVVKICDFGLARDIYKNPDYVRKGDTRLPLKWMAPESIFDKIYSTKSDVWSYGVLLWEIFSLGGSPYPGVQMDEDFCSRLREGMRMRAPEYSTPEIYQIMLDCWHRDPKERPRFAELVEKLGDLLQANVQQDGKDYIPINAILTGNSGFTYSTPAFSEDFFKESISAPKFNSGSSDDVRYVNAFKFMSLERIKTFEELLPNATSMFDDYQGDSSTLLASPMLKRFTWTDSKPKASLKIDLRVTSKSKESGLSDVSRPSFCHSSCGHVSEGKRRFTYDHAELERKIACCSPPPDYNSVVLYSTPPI
Sequence of UniProt Q6P2M8 (whole entry, looked up): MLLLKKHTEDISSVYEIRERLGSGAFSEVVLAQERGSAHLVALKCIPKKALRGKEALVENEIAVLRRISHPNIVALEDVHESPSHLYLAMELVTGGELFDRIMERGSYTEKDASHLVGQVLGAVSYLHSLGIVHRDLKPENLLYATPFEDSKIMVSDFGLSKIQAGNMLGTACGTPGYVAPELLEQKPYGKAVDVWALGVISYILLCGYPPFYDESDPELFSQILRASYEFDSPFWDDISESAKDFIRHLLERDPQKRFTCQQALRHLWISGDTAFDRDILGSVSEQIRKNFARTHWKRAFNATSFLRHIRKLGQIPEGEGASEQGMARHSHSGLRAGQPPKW

Series 1
SMILES: CCOc1nc(NC(=O)Cc2cc(OC)ccc2OC)cc(N)c1C#N
Observed: enzyme activity
Mode: inhibitor
Concentration: 0.5 µM
Relative to: control
DDR2 (Homo sapiens, UniProt Q16832) — remaining activity: 95.4%.
For NEK3 (Homo sapiens, UniProt P51956): remaining activity read 90%.
For MARK4 (Homo sapiens, UniProt Q96L34): remaining activity read 96.9%.
It gave 92.6% for remaining activity (MAPK1 (Homo sapiens, UniProt P28482)).
It gave 97.4% for remaining activity (MINK1 (Homo sapiens, UniProt Q8N4C8)).
PNCK (Homo sapiens, UniProt Q6P2M8) — remaining activity: 96.5%.
It gave 93.9% for remaining activity (MAPK14 (Homo sapiens, UniProt Q16539)).
The remaining activity was 98.1% (DCLK2 (Homo sapiens, UniProt Q8N568)).
It gave 92.2% for remaining activity (Cyclin-dependent kinase 1, with cyclin A (CDK1, Homo sapiens, UniProt P06493)).
The remaining activity was 102% (Myosin-IIIb (MYO3B, Homo sapiens, UniProt Q8WXR4)).
The remaining activity was 100% (TLK2 (Homo sapiens, UniProt Q86UE8)).
For CAMK4 (Homo sapiens, UniProt Q16566): remaining activity read 99.1%.
ROCK1 (Homo sapiens, UniProt Q13464) — remaining activity: 96.4%.
For Cyclin-dependent kinase 9, with cyclin K (CDK9, Homo sapiens, UniProt P50750): remaining activity read 89.2%.

Series 2
Target: DNA polymerase theta, helicase domain (POLQ, Homo sapiens, UniProt O75417)
Sequence of UniProt O75417 (whole entry, looked up): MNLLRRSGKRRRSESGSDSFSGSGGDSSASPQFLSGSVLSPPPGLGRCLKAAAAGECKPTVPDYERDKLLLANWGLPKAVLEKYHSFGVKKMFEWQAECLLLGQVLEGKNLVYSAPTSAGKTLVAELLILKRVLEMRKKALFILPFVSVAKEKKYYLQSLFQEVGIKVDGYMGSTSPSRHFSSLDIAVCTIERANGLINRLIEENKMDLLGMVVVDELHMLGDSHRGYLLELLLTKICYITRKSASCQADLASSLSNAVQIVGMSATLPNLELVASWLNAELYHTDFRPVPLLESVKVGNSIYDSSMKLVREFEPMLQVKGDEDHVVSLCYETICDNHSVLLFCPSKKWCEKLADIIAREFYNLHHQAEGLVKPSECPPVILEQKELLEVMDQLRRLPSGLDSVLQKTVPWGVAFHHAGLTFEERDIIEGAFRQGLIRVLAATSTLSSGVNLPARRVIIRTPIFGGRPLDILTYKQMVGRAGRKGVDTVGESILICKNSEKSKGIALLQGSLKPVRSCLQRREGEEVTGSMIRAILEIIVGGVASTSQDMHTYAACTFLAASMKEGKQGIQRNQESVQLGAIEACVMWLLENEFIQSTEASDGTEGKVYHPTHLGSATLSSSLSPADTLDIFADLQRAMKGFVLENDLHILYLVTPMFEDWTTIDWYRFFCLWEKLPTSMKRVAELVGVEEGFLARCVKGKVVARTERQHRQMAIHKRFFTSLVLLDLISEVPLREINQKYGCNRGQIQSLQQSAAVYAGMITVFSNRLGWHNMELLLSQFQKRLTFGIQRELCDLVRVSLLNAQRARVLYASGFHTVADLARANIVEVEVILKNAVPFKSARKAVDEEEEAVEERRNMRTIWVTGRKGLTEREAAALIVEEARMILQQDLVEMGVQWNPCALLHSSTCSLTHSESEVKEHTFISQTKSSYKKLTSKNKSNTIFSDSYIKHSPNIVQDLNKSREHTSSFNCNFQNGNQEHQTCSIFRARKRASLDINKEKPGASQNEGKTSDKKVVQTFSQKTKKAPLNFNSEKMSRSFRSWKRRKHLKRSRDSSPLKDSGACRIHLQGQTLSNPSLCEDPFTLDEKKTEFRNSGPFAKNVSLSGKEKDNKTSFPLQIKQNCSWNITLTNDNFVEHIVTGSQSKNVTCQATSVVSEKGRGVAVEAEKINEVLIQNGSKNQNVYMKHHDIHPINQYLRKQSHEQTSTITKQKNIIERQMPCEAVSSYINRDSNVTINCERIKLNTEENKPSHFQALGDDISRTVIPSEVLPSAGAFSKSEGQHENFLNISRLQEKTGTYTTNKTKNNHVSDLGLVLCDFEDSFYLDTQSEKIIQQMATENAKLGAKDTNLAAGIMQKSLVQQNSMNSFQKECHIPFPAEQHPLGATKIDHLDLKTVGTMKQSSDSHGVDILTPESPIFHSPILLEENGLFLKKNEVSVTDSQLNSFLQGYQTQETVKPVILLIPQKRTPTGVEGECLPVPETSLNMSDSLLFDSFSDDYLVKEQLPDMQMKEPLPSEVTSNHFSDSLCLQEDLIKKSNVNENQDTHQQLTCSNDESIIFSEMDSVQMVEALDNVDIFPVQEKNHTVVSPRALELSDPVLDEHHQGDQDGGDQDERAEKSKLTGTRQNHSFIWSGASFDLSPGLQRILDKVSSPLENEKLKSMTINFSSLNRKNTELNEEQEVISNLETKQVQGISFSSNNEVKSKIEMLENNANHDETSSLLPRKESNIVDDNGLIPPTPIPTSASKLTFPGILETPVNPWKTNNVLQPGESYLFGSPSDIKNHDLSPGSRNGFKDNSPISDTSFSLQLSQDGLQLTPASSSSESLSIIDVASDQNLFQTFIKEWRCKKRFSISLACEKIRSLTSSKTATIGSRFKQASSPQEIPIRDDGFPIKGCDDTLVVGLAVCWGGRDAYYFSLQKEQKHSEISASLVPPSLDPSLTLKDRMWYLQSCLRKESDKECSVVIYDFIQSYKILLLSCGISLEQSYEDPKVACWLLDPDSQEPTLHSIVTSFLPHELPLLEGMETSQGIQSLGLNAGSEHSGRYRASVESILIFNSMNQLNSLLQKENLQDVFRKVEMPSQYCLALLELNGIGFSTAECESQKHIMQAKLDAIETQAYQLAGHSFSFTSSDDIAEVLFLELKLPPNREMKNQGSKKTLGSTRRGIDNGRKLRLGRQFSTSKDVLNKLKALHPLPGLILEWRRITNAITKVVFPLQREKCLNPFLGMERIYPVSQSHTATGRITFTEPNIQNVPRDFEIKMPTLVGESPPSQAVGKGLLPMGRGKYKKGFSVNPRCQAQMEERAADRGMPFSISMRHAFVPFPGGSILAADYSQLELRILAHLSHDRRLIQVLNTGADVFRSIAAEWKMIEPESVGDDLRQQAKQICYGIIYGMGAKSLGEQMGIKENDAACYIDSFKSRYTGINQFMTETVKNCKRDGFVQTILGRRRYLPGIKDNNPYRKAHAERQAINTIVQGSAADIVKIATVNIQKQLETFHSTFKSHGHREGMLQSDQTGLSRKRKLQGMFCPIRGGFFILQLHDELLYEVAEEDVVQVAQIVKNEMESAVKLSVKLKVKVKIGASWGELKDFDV
Mode: inhibitor
Concentration: concentration not given
Together with: without ssDNA
`CCOc1ccccc1NC(=O)CSc1ncc(S(=O)(=O)c2ccc(C(C)(C)C)cc2)c(=O)[nH]1` gave a remaining activity of 71% and 71.7%.
With `COc1ccc(S(=O)(=O)c2cnc(SCC(=O)Nc3cc(F)ccc3C)[nH]c2=O)cc1Cl` the remaining activity was 80.2% and 77.4%.
For `O=C(O)/C(=C/c1c(C(=O)O)[nH]c2cc(Cl)cc(Cl)c12)c1ccccc1`, the remaining activity was 38.9% and 39.5%.
`CSc1ccc(/C=C/c2nc3ccccc3n2S(=O)(=O)c2cccc(Cl)c2)cc1` has a remaining activity of 66.3% and 64.8%.
For `O=c1[nH]c2cc(Cl)ccc2c(O)c1-c1cccc(Oc2ccccc2)c1`, the remaining activity was 66.1%.
For `CC(=O)Oc1cccc2c1C(=O)c1c(OC(C)=O)cc(C(=O)O)cc1C2=O`, the remaining activity was 57.3% and 60.6%.

Series 3
Target: Calcium/calmodulin-dependent protein kinase type II subunit alpha (CAMK2A, Homo sapiens, UniProt Q9UQM7)
Sequence of UniProt Q9UQM7 (whole entry, looked up): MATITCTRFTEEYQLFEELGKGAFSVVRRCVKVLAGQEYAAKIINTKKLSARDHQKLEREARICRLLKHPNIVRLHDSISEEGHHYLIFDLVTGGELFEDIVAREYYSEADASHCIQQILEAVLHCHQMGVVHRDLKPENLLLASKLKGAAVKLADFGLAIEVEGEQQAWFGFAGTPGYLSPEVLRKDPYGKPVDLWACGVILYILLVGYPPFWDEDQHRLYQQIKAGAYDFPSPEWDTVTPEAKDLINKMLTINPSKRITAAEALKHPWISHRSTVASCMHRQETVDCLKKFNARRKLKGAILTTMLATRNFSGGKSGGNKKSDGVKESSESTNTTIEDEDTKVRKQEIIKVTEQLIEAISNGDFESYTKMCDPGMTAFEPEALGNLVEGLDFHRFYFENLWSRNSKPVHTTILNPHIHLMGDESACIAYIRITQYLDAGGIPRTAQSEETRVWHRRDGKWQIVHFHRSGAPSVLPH
Observed: enzyme activity
Mode: inhibitor
Concentration: 10 µM
With `C[C@H](CC[C@@]1(O)O[C@H]2C[C@H]3[C@@H]4CC[C@@H]5C[C@@H](O[C@@H]6O[C@H](CO)[C@@H](O)[C@H](O)[C@H]6O[C@@H]6O[C@H](CO)[C@@H](O)[C@H](O)[C@H]6O)CC[C@]5(C)[C@H]4CC[C@]3(C)[C@H]2[C@@H]1C)CO[C@@H]1O[C@H](CO)[C@@H](O)[C@H](O)[C@H]1O` the inhibition was -9%.
`CC(C)=CCC[C@](C)(O[C@@H]1O[C@H](CO)[C@@H](O)[C@H](O)[C@H]1O)[C@H]1CC[C@]2(C)[C@@H]1[C@H](O)C[C@@H]1[C@@]3(C)CC[C@H](O)C(C)(C)[C@@H]3[C@@H](O[C@@H]3O[C@H](CO)[C@@H](O)[C@H](O)[C@H]3O[C@@H]3OC[C@@H](O)[C@H](O)[C@H]3O)C[C@]12C` gave an inhibition of 51%.
For `Nc1nc(=O)[nH]cc1F`, the inhibition was -5%.
For `O=C(O)Cc1cccnc1`, the inhibition was 16%.
`COc1cc2ccc(=O)oc2c(O)c1OC` has an inhibition of 3%.
The inhibition of `CC1=CC(=O)CC(C)(C)[C@@]1(O)/C=C/C(C)=C\C(=O)O` is reported as -41%.
The inhibition of `COc1ccc2cc1Oc1ccc(cc1)C[C@H]1c3c(cc4c(c3Oc3cc5c(cc3OC)CCN(C)[C@@H]5C2)OCO4)CCN1C` is reported as -7%.
The inhibition of `OCCc1ccc(O)cc1` is reported as 4%.
`CCN(CC)C(=O)/C(C#N)=C/c1cc(O)c(O)c([N+](=O)[O-])c1` has an inhibition of -2%.

Series 4
Compound: O=C(NC[C@@H]1[C@H]2CN(C(=O)OCc3cc(C(F)(F)F)cc(C(F)(F)F)c3)C[C@@H]12)c1ccc2[nH]nnc2c1
Observed: cell-free assay
Technique: competition with immobilised ligand
Concentration: 1 µM
It gave 100% for remaining binding (CSNK1E (Homo sapiens, UniProt P49674)).
For EIF2AK2 (Homo sapiens, UniProt P19525): remaining binding read 45%.
For FLT1 (Homo sapiens, UniProt P17948): remaining binding read 82%.
For CDK15 (Homo sapiens, UniProt Q96Q40): remaining binding read 75%.
RIPK4 (Homo sapiens, UniProt P57078) — remaining binding: 100%.
It gave 100% for remaining binding (PIP4K2B (Homo sapiens, UniProt P78356)).
The remaining binding was 84% (IRAK3 (Homo sapiens, UniProt Q9Y616)).
For NEK6 (Homo sapiens, UniProt Q9HC98): remaining binding read 100%.

Excerpt of the above (series 3):
`CC(C)=CCC[C@](C)(O[C@@H]1O[C@H](CO)[C@@H](O)[C@H](O)[C@H]1O)[C@H]1CC[C@]2(C)[C@@H]1[C@H](O)C[C@@H]1[C@@]3(C)CC[C@H](O)C(C)(C)[C@@H]3[C@@H](O[C@@H]3O[C@H](CO)[C@@H](O)[C@H](O)[C@H]3O[C@@H]3OC[C@@H](O)[C@H](O)[C@H]3O)C[C@]12C` gave an inhibition of 51%.
For `Nc1nc(=O)[nH]cc1F`, the inhibition was -5%.
For `O=C(O)Cc1cccnc1`, the inhibition was 16%.
